Assay results gathered from unrelated publications.
Each numbered part is a random draw from the data of one study; scales do not carry over between parts.

Sample 1
Target: TAR DNA-binding protein 43, full length, His tag (TARDBP, Homo sapiens, UniProt Q13148, residues 1-414)
Method: RNA Bind-n-Seq
Form: RNA
Medium: in vitro
Tested at: 20 nM
Setting: 6-mer, flanks averaged, single round
Added: 150 mM KCl
Reference: input library
Reading: higher = stronger binding
Sequence | 6-mer enrichment (R)
UCAGUU | 0.593
ACCUUG | 0.702
CGAGAA | 0.869
GCGCCU | 0.831
GAUGAG | 1.64
AUUAGA | 0.638
CCCAGA | 0.674
CGACCA | 0.675

Sample 2
Target: Runt-related transcription factor 3, Runt domain (RUNX3, Homo sapiens, UniProt Q13761, residues 53-186)
Sequence of UniProt Q13761 (53-186, looked up): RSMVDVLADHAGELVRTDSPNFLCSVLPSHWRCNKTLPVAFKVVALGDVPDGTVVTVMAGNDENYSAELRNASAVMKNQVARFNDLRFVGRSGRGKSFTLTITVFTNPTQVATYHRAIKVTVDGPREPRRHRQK
Method: protein-binding microarray
Form: hairpin DNA
Medium: in vitro
Tested at: not given
Setting: whole hairpin DNA, median over replicate spots
Reference: not given
Reading: higher = stronger binding
Sequence | median fluorescence [a.u.]
GAGGCCTGTTGTGGTTGGCCTCCTGGCCAACCACAACAGGCCTCACACTC (5mC at 34) | 6230
GAGGCCCGTCGCGGTTGGCCTCCTGGCCAACCGCGACGGGCCTCACACTC | 6080
CTCAGTTCTGTGGGCTCGACTCCTGTCGAGCCCACAGAACTGAGACACTC | 4150
GAGGCCCAACCGCAACGGCCTCCTGGCCGTTGCGGTTGGGCCTCACACTC (5mC at 28) | 8730
CTCAGTTCTGTGGGCCGGACTCCTGTCCGGCCCACAGAACTGAGACACTC (5mC at 16) | 4500
GAGGCCCAACCCGAACAGCCTCCTGGCTGTTCGGGTTGGGCCTCACACTC | 5200
GAGGCCAGTCGCGGTTGGCCTCCTGGCCAACCGCGACTGGCCTCACACTC | 5770
GACGCCTGTCGCGGTTGGCCTCCTGGCCAACCGCGACAGGCGTCACACTC (5mC at 3) | 5820

Sample 3
Target: RNA binding protein fox-1 homolog 2, RRM domain, GST-SBP tag (RBFOX2, Homo sapiens, UniProt O43251-10, residues 100-194)
Method: RNA Bind-n-Seq
Form: RNA
Medium: in vitro
Tested at: 365 nM
Setting: natural RNA segment, single round, ends assumed
Reference: no-protein control
Reading: higher = stronger binding
Shared flanks, not repeated: GGGAGUUCUACAGUCCGACGAUC … UGGAAUUCUCGGGUGCCAA
Construct (chain): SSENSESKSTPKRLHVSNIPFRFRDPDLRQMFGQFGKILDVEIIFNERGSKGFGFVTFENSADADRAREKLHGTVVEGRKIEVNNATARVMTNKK
Sequence | RBNS enrichment (R)
UACAGCAGACUGUAGUACCUCACAGCCCACUUGAGCCCUGGCUUCUCUCAGCAUCACAGAUGAAACUUAGCUUGAAUGGGUCAAUUCCACCUGUUUUUCUGUGCUCCAGC | 0.875
GCCUUACUGUAAGUGCAAUAGUUGACUUUUAACCAACCACCACCACCACCAAAACCAGUUUAUGCAGUUGGACUCCAAGCUGUAACUUCCUAGAGUUGCACCCUAGCAAC | 0.356
GGGCCUCCUCCAUCAGAUGUCUGGGCCUCCUCCAGCUGGUGCCUGGACAUUCACCGUUUAUACAUGGGCUCACACCCGUGUGAGCAGAGGAGACCCUGUGUUUUCAGUGG | 0.23
UCUUCUCACAUCCAUCUACUUUUUUAUCCACCUCCCUACCAAAAAUUGCCAAGUGCCUAUGCAAACCAGCUUUAGGUCCCAAUUCGGGGCCUGCUGGAGUUCCGGCCUGG | 0.721
AGUAGCCAAGGGAAGCCUCCAGAGAGCACAGAUGUGAACCCUCAGCAGCAGGCAUCACCCCCCAGUGGACUCGGGUGGGCCACCAGUAGCAUCUUCUAGAUGGCAGAGGG | 0.272
CAUGAGGACUGAUUCCUGUUCACACAACAAAUAUUCAGUGAAUGUCUACUAUGUGCCAGGUUCUGGGGAAGCAGGCAGGGUACAGUCACUUUUGGCCAAGGGUCUUGGGU | 0.678
CAUGCCCCGCGCCUGAGACUGGCUGGAAAUGCUCUGACUCCUGUGAAGGCACAGCCAGCGUUGUGGCCUGAGGGAGGCCCUGCUGGGACCCUGAUCUGGGCCUUCCUGUC | 0.476
CCCAGCCUGGAGCCACACCUUCUGAGGCCCCAGCCCAGACUCAUGACGCGGAGGGCAGACAGGCCGCCUGGGCCUACCAGAGCCCACUGGGACGGCAGGAAGGUGGGAUG | 0.536

Mixed results
Molecule | target | observed | form | tested at | endpoint | result
EVNAHIHTM | HLA class I histocompatibility antigen, A alpha chain, allele A*25:01 (Homo sapiens, UniProt P04439) | peptide-MHC binding | peptide | concentration not given | binding | active

Excerpt of the above (sample 1):
Sequence | 6-mer enrichment (R)
ACCUUG | 0.702
CGAGAA | 0.869
